Measured values of several laboratories.
Lines come from different studies, so protocols differ. pIC50: −log10 of the molar value.
Target: Bifunctional epoxide hydrolase 2 (EPHX2, Homo sapiens, UniProt P34913)
UniProt P34913, sequence (whole entry, looked up): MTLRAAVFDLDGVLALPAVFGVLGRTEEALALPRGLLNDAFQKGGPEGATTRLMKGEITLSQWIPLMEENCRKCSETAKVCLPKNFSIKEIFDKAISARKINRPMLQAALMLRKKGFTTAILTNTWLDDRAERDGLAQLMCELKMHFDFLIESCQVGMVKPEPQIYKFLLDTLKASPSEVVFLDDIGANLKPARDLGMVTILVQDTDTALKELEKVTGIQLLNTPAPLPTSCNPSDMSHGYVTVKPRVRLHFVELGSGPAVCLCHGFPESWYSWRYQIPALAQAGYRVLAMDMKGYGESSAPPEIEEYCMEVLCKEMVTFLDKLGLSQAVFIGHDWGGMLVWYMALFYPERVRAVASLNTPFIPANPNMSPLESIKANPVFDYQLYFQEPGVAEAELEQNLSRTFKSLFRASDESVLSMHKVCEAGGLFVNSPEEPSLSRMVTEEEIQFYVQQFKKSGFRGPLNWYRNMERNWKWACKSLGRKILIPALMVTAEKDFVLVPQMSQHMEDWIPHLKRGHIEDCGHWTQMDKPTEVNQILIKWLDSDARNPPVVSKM
Observed: enzyme activity
Action: inhibitor

Compound | technique | pH | notes | pIC50
N#CC1=C(N)n2c(nnc2-c2ccccc2)NC1c1ccc(Br)cc1 (centres unmarked) | fluorescence | – | – | 8.49
CC(=O)N1CCN(C(=O)c2ccc(NC(=O)NC34CC5CC(C)(CC(C)(C5)C3)C4)cc2)CC1 | – | – | – | 8.92
O=C(Nc1ccc(-c2nc(-c3ccccc3)cs2)cc1)C1CCN(Cc2ccccc2F)CC1 | fluorescence | pH 7.4 | with preincubation | 5.93
CC12CC3CC(C)(C1)CC(NC(=O)Nc1ccc(C(=O)N4CCCC(C(N)=O)C4)cc1)(C3)C2 (centres unmarked) | – | – | – | 9.60
O=C(Nc1ccc(-c2nc(-c3ccccc3)cs2)cc1)C1CCN(Cc2ccccc2)CC1 | fluorescence | pH 7.4 | with preincubation | 6.65
CCS(=O)(=O)N1CCC(NC(=O)Nc2ccc(OC(F)(F)F)cc2)CC1 | – | – | – | 8.62
CC1(C)[C@H]2CC[C@]1(C)[C@H](NC(=O)Nc1ccc(F)cc1)C2 | fluorescence | – | – | 8.40
O=C(NCCc1ccc(O)cc1)C1=Cc2cc(O)c(O)cc2[C@H](c2ccc(O)c(O)c2)[C@H]1C(=O)NCCc1ccc(O)cc1 | – | – | – | 5.08
CCCC(=O)N1CCN(C(=O)c2ccc(NC(=O)NC34CC5CC(C)(CC(C)(C5)C3)C4)cc2)CC1 | – | – | – | 9.05
O=C(NCCc1ccc(O)cc1)c1cc2cc(O)c(O)cc2c(-c2ccc(O)c(O)c2)c1C(=O)NCCc1ccc(O)cc1 | – | – | – | 4.74
O=C(Nc1ccc(-c2nc(-c3ccccc3)cs2)cc1)C1CCN(Cc2cccnc2)CC1 | fluorescence | pH 7.4 | with preincubation | 7.41
CC12CC3CC(C)(C1)CC(NC(=O)NC14CC5(C)CC(C)(CC(C)(C5)C1)C4)(C3)C2 | fluorescence | – | – | 6.80
O=C(Nc1ccc(-c2nc(-c3ccccc3)cs2)cc1)C1CCN(CC2CCCCC2)CC1 | fluorescence | pH 7.4 | with preincubation | 5.94
CONC(=O)C1CCN(C(=O)c2ccc(NC(=O)NC34CC5CC(C)(CC(C)(C5)C3)C4)cc2)CC1 | – | – | – | 9.04

Repeated from above:
Compound | technique | pH | notes | pIC50
CC12CC3CC(C)(C1)CC(NC(=O)Nc1ccc(C(=O)N4CCCC(C(N)=O)C4)cc1)(C3)C2 (centres unmarked) | – | – | – | 9.60
O=C(Nc1ccc(-c2nc(-c3ccccc3)cs2)cc1)C1CCN(Cc2ccccc2F)CC1 | fluorescence | pH 7.4 | with preincubation | 5.93
